Results collected from several papers.
Each line is one published result; not all experiments were run side by side. Values joined by “and” are separate records of one study, mostly repeats; a detail may differ. ± marks the error that the study gave.
Chain of UniProt Q64663 (whole entry, unmodified, looked up): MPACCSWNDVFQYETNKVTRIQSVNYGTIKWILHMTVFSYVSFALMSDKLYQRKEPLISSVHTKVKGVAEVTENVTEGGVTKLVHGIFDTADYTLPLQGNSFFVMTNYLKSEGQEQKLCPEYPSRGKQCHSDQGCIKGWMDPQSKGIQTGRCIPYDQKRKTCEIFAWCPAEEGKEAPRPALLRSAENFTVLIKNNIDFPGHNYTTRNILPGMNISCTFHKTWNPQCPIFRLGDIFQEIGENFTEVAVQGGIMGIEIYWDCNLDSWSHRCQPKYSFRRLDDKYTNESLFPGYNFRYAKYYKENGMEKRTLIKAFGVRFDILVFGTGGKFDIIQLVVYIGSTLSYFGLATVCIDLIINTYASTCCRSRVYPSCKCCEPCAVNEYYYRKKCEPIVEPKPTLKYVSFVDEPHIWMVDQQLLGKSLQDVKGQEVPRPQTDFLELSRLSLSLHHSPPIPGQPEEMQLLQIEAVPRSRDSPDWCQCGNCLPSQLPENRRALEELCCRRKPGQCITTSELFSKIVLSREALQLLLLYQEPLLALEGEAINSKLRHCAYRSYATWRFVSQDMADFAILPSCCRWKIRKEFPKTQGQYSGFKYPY
Chain of UniProt P48067 (whole entry, looked up): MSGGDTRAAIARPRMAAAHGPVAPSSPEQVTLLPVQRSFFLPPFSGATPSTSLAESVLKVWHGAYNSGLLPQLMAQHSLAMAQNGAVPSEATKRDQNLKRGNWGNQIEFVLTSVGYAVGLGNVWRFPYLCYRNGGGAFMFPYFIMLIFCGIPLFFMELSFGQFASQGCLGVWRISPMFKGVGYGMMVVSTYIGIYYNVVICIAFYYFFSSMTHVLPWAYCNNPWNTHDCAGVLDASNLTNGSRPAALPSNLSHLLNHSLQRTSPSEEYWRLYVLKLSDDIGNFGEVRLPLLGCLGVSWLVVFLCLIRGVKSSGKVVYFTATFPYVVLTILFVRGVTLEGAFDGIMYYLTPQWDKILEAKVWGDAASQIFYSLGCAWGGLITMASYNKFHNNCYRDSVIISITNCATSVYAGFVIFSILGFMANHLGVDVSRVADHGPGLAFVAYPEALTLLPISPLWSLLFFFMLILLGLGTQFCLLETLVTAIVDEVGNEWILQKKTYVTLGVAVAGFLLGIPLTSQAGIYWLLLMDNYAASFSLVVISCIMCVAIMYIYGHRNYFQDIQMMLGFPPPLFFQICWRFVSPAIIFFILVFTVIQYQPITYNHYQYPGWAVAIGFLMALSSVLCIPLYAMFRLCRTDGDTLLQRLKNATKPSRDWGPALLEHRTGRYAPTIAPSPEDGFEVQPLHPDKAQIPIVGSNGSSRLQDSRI

human alpha-1-acid glycoprotein 1 — co-IP enrichment (co-immunoprecipitation; human RBC membrane; no crosslinker, unit not given, with: Band 3 peptide 1-56 bait; relative to: negative control): 0
DNA 1 CACTGGCCGTCTTACGGTCGCTCTGCTCGACG / DNA 2 CGACCGTAAGACGGCCAGTG (dsDNA; 20 bp, 3' 12 nt overhang) — Kd (RECQL 63-592 M429A (Bos taurus, UniProt A0JN36); fluorescence anisotropy; double-stranded DNA; with: Mg2+ 3 mM): 19.3 ± 4.1 nM
triosephosphate isomerase — co-IP enrichment (co-immunoprecipitation; human RBC cytosol; DMTMM crosslinker, unit not given, with: Band 3 peptide 1-56 bait; relative to: negative control): 336
insulin aspart — time to late 50 % Cmax (ELISA after PEG precipitation, measured: free insulin aspart; human, type 1 diabetes, serum; subcutaneous, dose not given, least squares mean, single dose): 157 min
ACEQNPIYWARYADWLFTTPLLLLDLALLVDADEGT — mean fluorescence intensity (ex vivo fluorescence imaging; peptide, BALB/c mice, 4T1 tumour-bearing, muscle; intravenous, 5 nmol, 4 h post-injection; higher = more uptake): 1210 ± 189 a.u.
MTVCNASQRQAHAQATAVSL — selectivity ratio (HCC827; phage binding; peptide; relative to: targeting over control phage): 6.3 ± 2.5
TCP-1 alpha — co-IP enrichment (co-immunoprecipitation; human plasma; unit not given, with: Band 3 peptide 1-56 bait; relative to: negative control): 0
PLLEWMPRL — reporter activation (Jurkat T cells expressing 1G4 TCR; NFAT-eGFP reporter, fluorescence microscopy; peptide; concentration not given, HLA-A*02:01 NY-ESO system): 0.00746%
SVWLRKETRV — binding intensity (human MAGI1-3/6 PDZ construct (MBP fusion); automated holdup; peptide, crude extract; concentration not given, uncorrected, unit not given; relative to: biotin control resin, higher = stronger binding): 0.404
ALLEWVNQC — reporter activation (Jurkat T cells expressing 1G4 TCR; NFAT-eGFP reporter, flow cytometry; peptide; concentration not given, HLA-A*02:01 NY-ESO system): 0.17%
GSGAGSETSV — binding intensity (human SCRIB PDZ3-4 tandem (MBP fusion); automated holdup; peptide, purified PDZ protein; concentration not given, unit not given; relative to: biotin control resin, higher = stronger binding): 0.747
SLLEWQCIL — reporter activation (Jurkat T cells expressing 1G4 TCR; NFAT-eGFP reporter, fluorescence microscopy; peptide; concentration not given, HLA-A*02:01 NY-ESO system): 0.0125%
QGRWDHETIV — binding intensity (human MAGI1-2/6 PDZ construct (MBP fusion); automated holdup; peptide, purified PDZ protein; concentration not given, unit not given; relative to: biotin control resin, higher = stronger binding): -0.124
ALTQWVTEN — reporter activation (Jurkat T cells expressing 1G4 TCR; NFAT-eGFP reporter, flow cytometry; peptide; concentration not given, HLA-A*02:01 NY-ESO system): 0.14%
caspofungin — potassium (adult ICU patients, mITT, serum; dose not given, EOT): 4.2 mmol/L
hemoglobin beta — co-IP enrichment (co-immunoprecipitation; human RBC membrane; DMTMM crosslinker, unit not given, with: Band 3 peptide 1-56 bait; relative to: negative control): 365
epoetin alfa — mRNA level (UT7/EPO; microarray, measured: PHLDA1 (probe 217997_at); 5 U/mL, 90 min, with: SCF 10 nM; relative to: vehicle): 10.1 fold
FNA / CGLSGLGVA-NH2 ([18F]FNA-labelled, C-amide) — tissue uptake (gamma counting; peptide, healthy mice, skull bone; 60 min): 0.43 %ID/g
methyl-β-cyclodextrin — glycine uptake rate (Sodium- and chloride-dependent glycine transporter 1 (SLC6A9, Homo sapiens, UniProt P48067); transport activity, [3H]glycine uptake; 3.5 mg/mL, 1 min, with: glycine 75 µM; higher = more transport): 22.5 a.u. and 27.5 a.u. and 28.6 a.u. and 28.3 a.u.
NRVDSKETEC — binding intensity (human MAGI1-3/6 PDZ construct (MBP fusion); automated holdup; peptide, crude extract; concentration not given, uncorrected, unit not given; relative to: biotin control resin, higher = stronger binding): -0.11
colistin — MIC (Acinetobacter baumannii; broth microdilution; clinical isolate RKI-No_13/16): ≤ 0.5 µg/mL
adenosylhomocysteinase — co-IP enrichment (co-immunoprecipitation; human plasma; unit not given, with: Band 3 peptide 1-56 bait; relative to: negative control): 0
Teicoplanin — recovery (measured: stability; human serum; 1 days, 2-6 °C, high QC): 98.8%
KPGKGSETVV — binding intensity (human MAGI1-2/6 PDZ construct (MBP fusion); automated holdup; peptide, crude extract; concentration not given, corrected by standard peak, unit not given; relative to: biotin control resin, higher = stronger binding): 0.58
BzATP — normalized current (P2X purinoceptor 7 (P2rx7, Rattus norvegicus, UniProt Q64663, R125A); ion current, agonist, two-electrode voltage clamp; Xenopus oocytes; 3.704 µM): 0.552 and 0.571 and 0.451
human complement C3 — co-IP enrichment (co-immunoprecipitation; human plasma; no crosslinker, unit not given, with: Band 3 peptide 1-56 bait; relative to: negative control): 0
PKRSFIESNV — binding intensity (human SCRIB PDZ3-4 tandem (MBP fusion); automated holdup; peptide, crude extract; concentration not given, uncorrected, unit not given; relative to: biotin control resin, higher = stronger binding): 0.957
FKBP12 — co-IP enrichment (co-immunoprecipitation; human RBC cytosol; unit not given, with: Band 3 peptide 1-56 bait; relative to: negative control): 0
ALMQWVTQV — reporter activation (Jurkat T cells expressing 1G4 TCR; NFAT-eGFP reporter, fluorescence microscopy; peptide; concentration not given, HLA-A*02:01 NY-ESO system): 24.1%
FGA (Homo sapiens, UniProt P02671) — cross-linked residues (NTMT1 (Homo sapiens, UniProt Q9BV86); cross-linking MS; with: DSSO): K157 to K47
ACDDQNPWRAYLDLLFPTDTLLLDLLW — mean fluorescence intensity (ex vivo fluorescence imaging; peptide, BALB/c mice, 4T1 tumour-bearing, muscle; intravenous, 5 nmol, 24 h post-injection; higher = more uptake): 298 ± 28.6 a.u.
11-deoxycorticosterone — rate constant k-1 (CYP11B2 (human); substrate binding, stopped-flow kinetic modelling; 4-state branched induced-fit model, with: no adrenodoxin): 514 min⁻¹
Peginesatide — phosphorylation level (UT7/EPO; tyrosine phosphorylation, LC-MS/MS phosphoproteomics, trypsin, measured: ADD2 tyrosine 440; 10 nM, 15 min, with: 10 U/mL EPO; relative to: vehicle): 8.3 fold
YLGEWVAQL — reporter activation (Jurkat T cells expressing 1G4 TCR; NFAT-eGFP reporter, flow cytometry; peptide; concentration not given, HLA-A*02:01 NY-ESO system): 0.22%
GSGAGSETVV — binding intensity (human MAGI1-2/6 PDZ construct (MBP fusion); automated holdup; peptide, crude extract; concentration not given, corrected by standard peak, unit not given; relative to: biotin control resin, higher = stronger binding): 0.2
SLMQWVTQV — reporter activation (Jurkat T cells expressing 1G4 TCR; NFAT-eGFP reporter, flow cytometry; peptide; concentration not given, HLA-A*02:01 NY-ESO system): 77.3%
GSGAGKESYV — binding intensity (human MAGI1-3/6 PDZ construct (MBP fusion); automated holdup; peptide, crude extract; concentration not given, corrected by standard peak, unit not given; relative to: biotin control resin, higher = stronger binding): 0.743
insulin degludec — apparent clearance CL/F (human; subcutaneous, 0.4 IU/kg, 3 FC level, single dose, reference formulation): 1.56 ± 1.33 L/h
human serum albumin — co-IP enrichment (co-immunoprecipitation; human RBC cytosol; DSSO crosslinker, unit not given, with: Band 3 peptide 1-56 bait; relative to: negative control): 127
WLGQWIARL — reporter activation (Jurkat T cells expressing 1G4 TCR; NFAT-eGFP reporter, fluorescence microscopy; peptide; concentration not given, HLA-A*02:01 NY-ESO system): 0.0128%

Some of these lines once more:
PKRSFIESNV — binding intensity (human SCRIB PDZ3-4 tandem (MBP fusion); automated holdup; peptide, crude extract; concentration not given, uncorrected, unit not given; relative to: biotin control resin, higher = stronger binding): 0.957
FKBP12 — co-IP enrichment (co-immunoprecipitation; human RBC cytosol; unit not given, with: Band 3 peptide 1-56 bait; relative to: negative control): 0
ALMQWVTQV — reporter activation (Jurkat T cells expressing 1G4 TCR; NFAT-eGFP reporter, fluorescence microscopy; peptide; concentration not given, HLA-A*02:01 NY-ESO system): 24.1%
